Assay results of several laboratories.
Parts stem from different laboratories: compare values within a part only.

Series 1 — technique: RNA Bind-n-Seq; form: RNA; matrix: in vitro; concentration: 365 nM; baseline: no-protein control; direction: higher = stronger binding
Target: RNA binding protein fox-1 homolog 2, RRM domain, GST-SBP tag (RBFOX2, Homo sapiens, UniProt O43251-10, residues 100-194)
Notes: natural RNA segment, single round, ends assumed
Construct (chain): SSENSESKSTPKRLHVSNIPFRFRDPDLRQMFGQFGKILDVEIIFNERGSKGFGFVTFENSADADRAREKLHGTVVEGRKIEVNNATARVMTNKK
| Sequence | RBNS enrichment (R) |
| --- | --- |
| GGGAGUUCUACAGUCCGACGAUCAAACUAACUGUACUCUGUAUUUCUUAUUUGUACAUAUCAAUGUGAGAAAUCUCCCUUUUUUAUGUUGCAAUUACCUUGUGAUCAGGCAGCUUGAGUGCUAUGCAAAUAGUUGGAAUUCUCGGGUGCCAA | 0.61 |
| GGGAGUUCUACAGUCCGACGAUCGGAUUUGGGUCCCGAGGUGCCCCCUGAGAACGUACUGGGGGCUCUGCUACGCGUCAAACGCCUGGAGAACCCCUCGCCCCAGGCGCCGGCACGCCGCCUCCUGCCUCCCUUGGAAUUCUCGGGUGCCAA | 0.354 |
| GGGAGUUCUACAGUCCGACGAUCGUGAGGUCUGCCUCACACCACCCACCUGCACUGCUCUCGCCUAACUGUGGACGCCGGGCACUGUUGGAAACGAAGUUUUGUAAUUUCUGCCUGAUUCACCCUUAUUGGCAUGGAAUUCUCGGGUGCCAA | 0.536 |
| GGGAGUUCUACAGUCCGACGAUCUGGGUGAUUAUGAUUGACACUCACCUGCCCUGGAAAGCCAGGGUGUGAGAUGGGUGUCUGGGAGUGGUGCCAUGGAAGUGGCGAUUCUGCUUCUUAUAAAUACCUCCAAAUGGAAUUCUCGGGUGCCAA | 0.24 |
| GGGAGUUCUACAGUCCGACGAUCGCAGCACCUUCUUAGCGAUCUAGGCCUGGCAAGAGCUCUGGCCCCAAGGCCUCCUCUUCCCAGGGGCUGCCAAGUCCUGGCCCUGGCCCUGGCAUAUCACCCCGCACUGUUGGAAUUCUCGGGUGCCAA | 2.52 |
| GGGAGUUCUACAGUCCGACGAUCCCGAGUCCCACCGUGUGUCCGUUGUAAGUCCGGUGGAUGUGGCUGGGGUUUCCUGGUAUUGUGGAGGCACCCAGGUUGUCCAUGCUUGGGAUUCUGGGGGAAGGAGAGAAUGGAAUUCUCGGGUGCCAA | 2.17 |
| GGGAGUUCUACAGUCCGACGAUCGCAGAAGAGUGACCAGGAGCUUCGGCCAGGGAGACGGCGUGCAGGCCACUUGGCCUCCACUUGGUUUCUUCCCCACAUCUCUCACUUGGGCUGGGAACUGACAGAGGAGCUGGAAUUCUCGGGUGCCAA | 0.382 |
| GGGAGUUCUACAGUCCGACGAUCAAGCAUGUUUUUGUGGUUAUAAAAACACUUAAAAAUCCUGAUAAUUCUGGGCUUGUAUAAUGCCUGUUGAUCUUGCCCUCUUAAUCAGUUUAUUGUUAUUCACAAAUGCAUGGAAUUCUCGGGUGCCAA | 12.4 |

Series 2 — technique: RNA Bind-n-Seq; form: RNA; matrix: in vitro; concentration: not given; baseline: input RNA pool; direction: higher = stronger binding
Target: RING finger protein unkempt homolog, zinc fingers 1-6, GST-SBP tag (UNK, Homo sapiens, UniProt Q9C0B0, residues 30-357)
UniProt Q9C0B0, sequence (30-357, looked up): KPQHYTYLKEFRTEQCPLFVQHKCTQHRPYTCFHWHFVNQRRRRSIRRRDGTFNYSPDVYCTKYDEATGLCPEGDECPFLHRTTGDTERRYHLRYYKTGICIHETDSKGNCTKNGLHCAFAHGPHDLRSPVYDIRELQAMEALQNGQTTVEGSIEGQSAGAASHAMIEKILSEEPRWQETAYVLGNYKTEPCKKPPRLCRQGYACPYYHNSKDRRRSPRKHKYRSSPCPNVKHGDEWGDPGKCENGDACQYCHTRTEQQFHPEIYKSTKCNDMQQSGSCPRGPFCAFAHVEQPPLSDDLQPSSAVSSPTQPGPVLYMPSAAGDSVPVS
Notes: RNA with constant flanks, human and mouse sites, ends assumed
| Sequence | bound/input enrichment |
| --- | --- |
| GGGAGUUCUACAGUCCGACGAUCUGGGUUCAGGAUGUGGAUGCAUUGCAGGCAGGAGGACGUGUGCCAGUGUUAGAGACACUCAUUGAACUUGUUGCAAGAGGCCGAUCUAUCCCAGUACAUCUCAAUUCUUUACCAAGAUUGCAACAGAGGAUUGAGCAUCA | 0.143 ratio |
| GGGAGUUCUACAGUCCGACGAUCACUACAGGAUGUGUAUUAAAUAAAUUGUUUCAGUUACCAACACCACCAUUGUCAAGACACCAACUAAAGCGGCUAGAAGAACACAGAUAUCAAAGUGCUGGACGGUCCCUGCUUGAGCCCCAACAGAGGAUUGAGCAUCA | 0.783 ratio |
| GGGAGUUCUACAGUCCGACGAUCCAGUUUGACACUAAGAUAAUGAACUUCUGUGUGCAUUUUUCUAUGCUUUAUUUUUUAAUGUAGCUUACUUCCUGAGAUUUUGGCUUUGUUUAUACAAUCUGAGGGUGGUUAUAAAUACUGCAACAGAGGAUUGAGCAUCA | 0.323 ratio |
| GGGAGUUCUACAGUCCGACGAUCGCCACAUCCGGUGAUAUUUGGCCUGGCCUUUCAGCUUAUGAUAAUAGUCCUAGAUCACCCCAUAGUCCUUCACCUAUUGCUACACCACCUAGUCAGAGUUCAUCUUGCUCUGAUGCUCCCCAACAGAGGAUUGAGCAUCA | 5.98 ratio |
| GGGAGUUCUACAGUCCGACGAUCGUUUACAUCUUUGGUGAUGGACGAGGCCUUAUUGAAGGAAAUGACAUUUAUGGCAAUGCAUUAGCAGGAAUUCAAAUUAGGACAAACAGUUGUCCAAUUGUUCGGCAUAACAAAAUUCAUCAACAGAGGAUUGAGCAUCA | 0.173 ratio |
| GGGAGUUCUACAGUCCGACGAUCGAAGUCAUUGUAUUUGAUUGGACAGAUUUUUGCCAAUACCUAUUUCUUUCUAUAAAUAAUGGAUUUUUAAAAAAAACAAAAACAAAAACAUACUCAUUGCAUGGCUCCUGGACCCGUCUUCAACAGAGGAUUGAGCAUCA | 0.58 ratio |
| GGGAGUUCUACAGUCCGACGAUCCACUAUCAGUAUGAUCGAUCAGGGCCAUAUGGUUAUAGAGGGAUUGGGGGAAUGAAGCCUUCCAUGUCUGACACAAAUUUAGCAGAAGCUGGACAUUUUUUCUAUAAAAGUAAGAAUGCUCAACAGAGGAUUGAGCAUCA | 1.39 ratio |
| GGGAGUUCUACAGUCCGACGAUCUCUCUGUUCAGCUGUUAAUGCUGGGAUCCAUAUUUAGUUUUAUAAGCUUUUCCCUGUUUUUAGUUUUGUUUUGGGUUUUUUGGCUCAUGAAUUUUAUUUCUGUUUGUCGAUAAGAAAUGUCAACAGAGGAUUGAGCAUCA | 198 ratio |

Series 3 — target: UBE2E3 UBC core domain (UniProt Q969T4); technique: yeast two-hybrid; matrix: yeast; notes: mostly zero background; baseline: not given; direction: higher = stronger interaction
UniProt Q969T4, sequence (whole entry, looked up): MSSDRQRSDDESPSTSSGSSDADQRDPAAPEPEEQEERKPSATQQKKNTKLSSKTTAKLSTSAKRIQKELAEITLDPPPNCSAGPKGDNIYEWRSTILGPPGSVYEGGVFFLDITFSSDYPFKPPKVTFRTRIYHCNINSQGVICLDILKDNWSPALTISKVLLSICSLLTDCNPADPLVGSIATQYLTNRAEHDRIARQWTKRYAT
B1: MID1 RING domain (UniProt O15344); chain METLESELTCPICLELFEDPLLLPCAHSLCFNCAHRILVSHCATNESVESITAFQCPTCRHVITLSQRGL
B2: TRIM8 RING domain (UniProt Q9BZR9); chain WKNCFEEELICPICLHVFVEPVQLPCKHNFCRGCIGEAWAKDSGLVRCPECNQAYNQKPGLE
B3: RNF25 RING domain (UniProt Q96BH1); chain LTDNNIPHGQCVICLYGFQEKEAFTKTPCYHYFHCHCLARYIQHMEQELKAQGQEQEQERQHATTKQKAVGVQCPVCREPLVYDLASL
B4: ARK2C RING domain (UniProt Q6ZSG1); chain EGEESDTDEKCTICLSMLEDGEDVRRLPCMHLFHQLCVDQWLAMSKKCPICRVDIETQLGAD
B5: TRIM69 RING domain (UniProt Q86WT6); chain VIQDITMELHCPLCNDWFRDPLMLSCGHNFCEACIQDFWRLQAKETFCPECKMLCQYNNCTF
B6: ZNF598 RING domain (UniProt Q86UK7); chain AAAPERGGGSCVLCCGDLEATALGRCDHPVCYRCSTKMRVLCEQRYCAVCREELRQVVFGK
B7: IRF2BPL RING domain (UniProt Q9H1B7); chain SPMANSGPLCCTICHERLEDTHFVQCPSVPSHKFCFPCSRESIKAQGATGEVYCPSGEKCPLVGSNVP
| Molecule | lacZ reporter activity |
| --- | --- |
| B1 (MID1 RING domain) | 0 |
| B2 (TRIM8 RING domain) | 0 |
| B3 (RNF25 RING domain) | 5840 |
| DAIPSLSECQCGICMEILVEPVTLPCNHTLCKPCFQSTVEKASLCCPFCRRRVSSWTRYH (RNF168 RING domain (UniProt Q8IYW5)) | 0 |
| B4 (ARK2C RING domain) | 5510 |
| B5 (TRIM69 RING domain) | 0 |
| QLQDIKEQTMCPVCLDRLKNMIFLCGHGTCQLCGDRMSECPICRKAIERRILLY (MIB1 RING domain (UniProt Q86YT6)) | 0 |
| FPEHFVKSISCQICEHILADPVETNCKHVFCRVCILRCLKVMGSYCPSCRYPCFPTDLES (RAG1 RING domain (UniProt P15918)) | 0 |
| B6 (ZNF598 RING domain) | 0 |
| B7 (IRF2BPL RING domain) | 0 |

Series 4 — technique: protein-binding microarray; form: double-stranded DNA, one strand shown; matrix: in vitro; concentration: 940 nM top; notes: 60-bp whole probe; together with: salmon DNA 0.4 mg/ml; baseline: random background probes; direction: higher = stronger binding; constant ends, left off below: GCCTAGCAC … GTCTTGATTCGCTTGACGCTGCTG
Target: Interferon regulatory factor 5, full length, phosphomimetic (IRF5, Homo sapiens, UniProt Q13568-2, residues 1-514, S451D/S453D/S456D/S462D)
| Sequence | fitted relative affinity [z-score] |
| --- | --- |
| TCATGTTTGAGAAATCAGACTGTGCTA | -0.178 |
| GACGGTTCCGGTTACGGGACGTGCTAG | 2.93 |
| TCACCACTCCAGTTCTGACTGTGCTAG | 0.0785 |
| TTAGATCTCAGGTTCGATTAGTGCTAG | 0.237 |
| TTAGGTATTCTTATCCTTTAGTGCTAG | 0.226 |
| GACGGTCTCCTACTACTGACGTGCTAG | 0.127 |
| TCACCACTTTCTTTTGCACTGTGCTAG | 2.06 |
| TCATGTGTGTGTATGTGACTGTGCTAG | 0.0195 |
| GACGATCTCAGTATCGAGATGTGCTAG | 1.94 |
| GACGATCTAAGTATCGAGACGTGCTAG | 1.26 |
| TTAGAACTGAGTATCCATTAGTGCTAG | -0.193 |
| TCGTAAGCAAAAATGATTGGGTGCTAG | -0.297 |
| GACGGTTCTCTTTTCCTGACGTGCTAG | 1.1 |
| TTAGGACTGCTTCTCCTTTCGTGCTAG | -0.177 |
| TTTTTTTTTTTTTTTGGAATGTGCTAG | 0.817 |
| GAACTTTGGCCTCTAGGTTTGTGCTAG | -0.527 |

Some of these lines once more (series 3):
| Molecule | lacZ reporter activity |
| --- | --- |
| FPEHFVKSISCQICEHILADPVETNCKHVFCRVCILRCLKVMGSYCPSCRYPCFPTDLES (RAG1 RING domain (UniProt P15918)) | 0 |
| B5 (TRIM69 RING domain) | 0 |
| B6 (ZNF598 RING domain) | 0 |
